Measurements collected from several papers.
Every numbered part comes from another study and shows a few of its results, in no order. Changes are numbered by the printed parent chain.

Study 1 — technique: RNA Bind-n-Seq; form: RNA; medium: in vitro; concentration: 365 nM; relative to: no-protein control; direction: higher = stronger binding
Target: RNA binding protein fox-1 homolog 2, RRM domain, GST-SBP tag (RBFOX2, Homo sapiens, UniProt O43251-10, residues 100-194)
Notes: natural RNA segment, single round, ends assumed
Constant ends, left off below: GGGAGUUCUACAGUCCGACGAUC … UGGAAUUCUCGGGUGCCAA
Residues (chain): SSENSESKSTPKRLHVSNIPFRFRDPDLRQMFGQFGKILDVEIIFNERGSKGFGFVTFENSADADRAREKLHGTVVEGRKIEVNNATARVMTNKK
| Sequence | RBNS enrichment (R) |
| --- | --- |
| CUGUCUUGGGGCCACUUUCAGAGCCCCCAGCCCUGGGAACCACUCCCACCACAGGCAUAAGCUAUCACCUAGCAGCCUCAAAACGGGUCAGUAUUAAGGUUUUCAACCGG | 0.314 |
| GCUGAAGCUGUAGUUAUUAUGGGCCACUUACAUGAGGCUGAGAAGUACGUGCCGGAGCUCACACACUGCCUGUUGCGGUUCUCUUAACAUCAGUUAUCACAGCUGCCUGU | 0.674 |
| UCUCCCAACGUUUGCCUCCCAAUGUUGUCCCUUUCCUUCGUUCCCAUGGUAAAGCUCCUCUCGCUUUCCUCCUGAGGCUACACCCAUGCGUCUCUAGGAACUGGUCACAA | 0.548 |
| UAGGACUUCAAAGUGUGUCUGGGAUUUUUUUAUUAAAGAAAAAAAAUUUCUAGCUGUCCUUGCAGAAUUAUAGUGAAUACCAAAAUGGGGUUUUGCCCCAGGAGGCUCCU | 0.368 |
| UGCAUAUUUAAUCUGCAACAAAAAUGUUAAGCCAUAACAGCCUUUUUAUAUUUUAGUUUGUCACCUUUGCAUUGCAGAAUAAAUACUGAAUAACCAUUUUUAUAAGCAGU | 0.508 |
| CUUUCUCUCCAAUAAUGUUGCAACUCACCAAAACUAUUCUUGAAGAGGUCCAAGAACAUGUAUUAUCCAGACUAAAAAAAUGAUUUUUUGUUGUUAUGGUUUACGUGAUG | 0.452 |
| AGCUGCCAUUUCUGAGUCCUUGAGAGGCUGAGAAGGCUCUAGCUUUGUACUGUAUUCUUACUGUGUGACUAGAUGCGUGAGCGCUUUACAUUAGAAGGAACCUGGUUAGA | 0.413 |
| GGAAGGAAAAAUGAGGAGAAAGAGUGUGGUAUCCUCCUUCUAAGACAGUGACCGAUUUCUCUGGGUUGGGCCAAGACUUUAUUUACUGCAUCAUGCAUGACUCACUCAGG | 18.4 |
| CACUGACAGUUUGCUCACAGGUUAUGUUUGAAUGUCUUAUGGAAGCAGACGUUAUUUUCCGUGAUUCUUAGGACUACCUGUCUGUCACGAAUCUGCCCACGGUAGUCAGG | 2.7 |
| UUUCUUGUAAAUAAGCCUGCCUUCCUACCUGGAAUUUGUGUGUGUGUGACUAAUACAUGUUCUACGAGUUAACUACUUUGGCAGUUUUAAUCAUUUCUUCUUUGUUUUGU | 0.658 |
| GCCUCAGAGCAGAAGAAACAAACCUGCUGUCUUGUUGGCCCAGUGUUUCAGUUUUGAAGUGUGUACUUUCUCCUCUGUGUGUGCCAAUUACAUAUUAGAGAACAAGGAAU | 0.394 |
| UUCACACUGUAGUUAUUGCUUCAUUUACAGGUCCUCUGUGCUUAAUUGCUGUUUUUGUUGCUGUAGUACCUUAUGAAUUCUUAAUUCAUUGAGACUUAGUGACCAUCUGG | 0.471 |

Study 2 — technique: protein-binding microarray; form: double-stranded DNA, one strand shown; medium: in vitro; concentration: not given; direction: higher = stronger binding
Target: Myc proto-oncogene protein, bHLH-zipper, MAX partner unstated (MYC, Homo sapiens, UniProt P01106, residues 368-449)
UniProt P01106, sequence (368-449, looked up): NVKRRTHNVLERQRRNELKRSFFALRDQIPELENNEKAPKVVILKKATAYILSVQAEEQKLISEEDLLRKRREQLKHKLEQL
Notes: k-mer, scored over probes, only values ≥0.25
| Sequence | E-score |
| --- | --- |
| CCTCCCAC | 0.253 |
| ACATGGGA | 0.272 |
| CATGCCGC | 0.419 |
| CGCCTCAC | 0.263 |
| AGGTGCAT | 0.316 |
| ACGAGGAG | 0.328 |
| CGCCCACG | 0.385 |
| CATGTGCG | 0.477 |
| CACGGGGG | 0.365 |
| CACACACG | 0.32 |
| AGCCCATG | 0.264 |
| ATTCCATG | 0.261 |

Study 3 — target: CCND3, cyclin fold, Cln2 fusion (human); technique: yeast growth competition, sequencing; medium: yeast; notes: weak parent motif; relative to: not given; direction: higher = stronger binding
Starting sequence: SAMHD1 docking peptide (human); ASKSRVQLFKDDP; partner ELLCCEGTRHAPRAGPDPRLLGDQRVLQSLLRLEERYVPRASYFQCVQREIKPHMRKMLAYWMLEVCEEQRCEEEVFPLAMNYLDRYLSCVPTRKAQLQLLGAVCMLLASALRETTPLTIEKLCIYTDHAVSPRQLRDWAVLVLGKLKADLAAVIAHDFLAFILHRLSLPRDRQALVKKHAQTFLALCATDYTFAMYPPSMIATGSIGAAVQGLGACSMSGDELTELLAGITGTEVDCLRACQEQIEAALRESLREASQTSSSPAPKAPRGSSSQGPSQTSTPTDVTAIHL
| Variant | normalised enrichment score |
| --- | --- |
| K10C | 0.0786 |
| K3V | -0.125 |
| S2F | 0.152 |
| D11W | 0.087 |
| V6T | 0.0282 |
| D12N | -0.026 |
| K3A | 0.217 |
| D12C | -0.0288 |
| Q7A | -0.39 |

Other studies, line by line
| Substance | target | test | system | conditions | scale | quantity | value |
| --- | --- | --- | --- | --- | --- | --- | --- |
| PhoQ, residues 284 288 289 292 302 303 AAQSYM | PhoP, residues 12 14 15 18 19 LQHIR (Escherichia coli, UniProt P23836) | Sort-seq, item: YFP reporter | E. coli | PhoQ-PhoP variant library, together with: 10 µM Mg2+ | relative to: high Mg2+ state, higher = stronger signaling | fold induction | 17.1 |

Repeated from above (study 3):
| Variant | normalised enrichment score |
| --- | --- |
| K3V | -0.125 |
| S2F | 0.152 |
| D11W | 0.087 |
| V6T | 0.0282 |
